Measured values collected from several papers.
Protocols differ between the studies behind these lines. Values joined by “and” are separate records of one study, mostly repeats; a detail may differ.

Structure (SMILES) = COc1cc(N(C)CCN(C)C)c(NC(=O)CCSCC(NC(C)=O)C(=O)O)cc1Nc1nccc(-c2cn(C3CC3)c3ccccc23)n1 (stereo not drawn); test = radio-HPLC, co-eluting peaks pooled; system = human, feces; conditions = dose not given, 0 to 240 h, sample holds 81.99% dose; scale = relative to: sample radioactivity; quantity = share of radioactivity; result = 2.49%
Structure (SMILES) = O=C(O)[C@H]1O[C@@H](O[C@H](C[C@H]2c3c(F)cccc3-c3cncn32)[C@H]2CC[C@H](O)CC2)[C@H](O)[C@@H](O)[C@@H]1O; system = human, plasma; conditions = oral, 200 mg, 0 to 48 h pooled, [14C]-navoximod dosed; quantity = share of total radioactivity in plasma; result = 57.5%
Structure (SMILES) = C=CC(=O)Nc1cc(Nc2nccc(-c3cn(C4CC4)c4ccccc34)n2)c(OC)cc1N(C)CCNC; test = radio-HPLC; system = human male, feces; conditions = oral, 110 mg, 48 to 96 h, sample holds 20.06% dose; scale = relative to: sample radioactivity; quantity = share of radioactivity; result = 17.1%
Structure (SMILES) = CC12CC(c3ccc(S(C)(=O)=O)cc3)C3=C4CCC(O)C=C4CCC3C1CCC2(O)C(F)(F)C(F)(F)F (stereo not drawn); system = human, plasma; conditions = oral, 5 mg, mass balance study; quantity = share of total radioactivity AUC; result = 5 to 7% and 5.2 to 6.6%
Structure (SMILES) = CCc1cc(Nc2nc(-c3ccc(-n4cnc(C)c4)c(F)c3)cs2)c(C)cc1C(=O)O; system = human, plasma; conditions = oral, dose not given; quantity = share of drug-related material; result = > 10%
Structure (SMILES) = CNc1cc(OC)c(Nc2nccc(-c3cn(C4CC4)c4ccccc34)n2)cc1NC(=O)CCSCC(N)C(=O)O (stereo not drawn); test = radio-HPLC, co-eluting peaks pooled; system = human, feces; conditions = dose not given, 0 to 240 h, sample holds 81.99% dose; scale = relative to: sample radioactivity; quantity = share of radioactivity; result = 8.24%
Structure (SMILES) = CCc1nc(C(N)=O)c(Nc2ccc(N3CCC(N4CCNCC4)CC3)c(OC)c2)nc1NC1CCOCC1; test = metabolite profiling; system = human, advanced solid tumours, urine; conditions = oral, 120 mg of [14C]-gilteritinib; quantity = share of radioactivity; result = 0.4 to 2.1%
Structure (SMILES) = CC[C@H](C)[C@H](NC(=O)[C@H](CC(C)C)NC(=O)[C@H](Cc1c[nH]c2ccccc12)NC(=O)[C@H](C)NC(=O)[C@@H](NC(=O)[C@H](Cc1ccccc1)NC(=O)[C@H](CC(=O)O)NC(=O)[C@H](CCCNC(=N)N)NC(=O)[C@H](C)NC(=O)[C@H](C)NC(=O)[C@H](CC(C)C)NC(=O)[C@H](C)NC(=O)[C@H](CC(=O)O)NC(=O)[C@H](CC(C)C)NC(=O)[C@@H](NC(=O)[C@@H](NC(=O)[C@H](C)NC(=O)[C@H](CC(C)C)NC(=O)[C@H](CCC(=O)O)NC(=O)[C@H](CO)NC(=O)[C@H](CO)NC(=O)[C@H](Cc1ccccc1)NC(=O)[C@@H](NC(=O)CNC(=O)[C@H](CCC(=O)O)NC(=O)CNC(=O)[C@@H](N)Cc1c[nH]cn1)[C@@H](C)O)[C@@H](C)O)[C@@H](C)CC)[C@@H](C)CC)C(=O)N[C@@H](C)C(=O)N[C@H](C(=O)N[C@@H](CCCCN)C(=O)N[C@H](C(=O)N[C@H](C(=O)N[C@@H](CC(=O)O)C(=O)N[C@@H](CCCCN)C(=O)O)[C@@H](C)O)[C@@H](C)CC)[C@@H](C)O; system = healthy human subjects, plasma; conditions = intravenous infusion, 1 mg glepaglutide; scale = relative to: sum of parent and metabolites; quantity = share of total exposure; result = ~7%
Structure (SMILES) = O=C(O)C1OC(OC2CCC(C(O)CC3c4c(F)cccc4-c4cncn43)CC2)C(O)C(O)C1O (stereo not drawn); system = human, plasma; conditions = oral, 200 mg, 0 to 48 h pooled, [14C]-navoximod dosed; quantity = share of total radioactivity in plasma; result = 3.14%
Structure (SMILES) = Cn1c(=O)oc2ccc(-c3ccc(CC(C#N)NC(=O)C4CNCCCO4)c(F)c3)cc21 (stereo not drawn); test = measured: white blood cells in urine; system = human volunteers; conditions = 80 mg single dose, fasted; quantity = share of subjects with TEAE; result = 0%
Structure (SMILES) = CC[C@H](C)[C@H](NC(=O)[C@H](CC(C)C)NC(=O)[C@H](Cc1c[nH]c2ccccc12)NC(=O)[C@H](C)NC(=O)[C@@H](NC(=O)[C@H](Cc1ccccc1)NC(=O)[C@H](CC(=O)O)NC(=O)[C@H](CCCNC(=N)N)NC(=O)[C@H](C)NC(=O)[C@H](C)NC(=O)[C@H](CC(C)C)NC(=O)[C@H](C)NC(=O)[C@H](CC(=O)O)NC(=O)[C@H](CC(C)C)NC(=O)[C@@H](NC(=O)[C@@H](NC(=O)[C@H](C)NC(=O)[C@H](CC(C)C)NC(=O)[C@H](CCC(=O)O)NC(=O)[C@H](CO)NC(=O)[C@H](CO)NC(=O)[C@H](Cc1ccccc1)NC(=O)[C@@H](NC(=O)CNC(=O)[C@H](CCC(=O)O)NC(=O)CNC(=O)[C@@H](N)Cc1c[nH]cn1)[C@@H](C)O)[C@@H](C)O)[C@@H](C)CC)[C@@H](C)CC)C(=O)N[C@@H](C)C(=O)N[C@H](C(=O)N[C@@H](CCCCN)C(=O)N[C@H](C(=O)N[C@H](C(=O)N[C@@H](CC(=O)O)C(=O)N[C@@H](CCCCN)C(=O)N[C@@H](CCCCN)C(=O)O)[C@@H](C)O)[C@@H](C)CC)[C@@H](C)O; system = healthy human subjects, plasma; conditions = intravenous infusion, 1 mg glepaglutide; scale = relative to: sum of parent and metabolites; quantity = share of total exposure; result = ~2%
Structure (SMILES) = C=CC(=O)Nc1cc(Nc2nccc(-c3cn(C4CC4)c4ccccc34)n2)c(OC)cc1NC; test = radio-HPLC; system = human male, feces; conditions = oral, 110 mg, 0 to 48 h, sample holds 45.32% dose; scale = relative to: sample radioactivity; quantity = share of radioactivity; result = 0.74%

Repeated from above:
Structure (SMILES) = COc1cc(N(C)CCN(C)C)c(NC(=O)CCSCC(NC(C)=O)C(=O)O)cc1Nc1nccc(-c2cn(C3CC3)c3ccccc23)n1 (stereo not drawn); test = radio-HPLC, co-eluting peaks pooled; system = human, feces; conditions = dose not given, 0 to 240 h, sample holds 81.99% dose; scale = relative to: sample radioactivity; quantity = share of radioactivity; result = 2.49%
Structure (SMILES) = O=C(O)[C@H]1O[C@@H](O[C@H](C[C@H]2c3c(F)cccc3-c3cncn32)[C@H]2CC[C@H](O)CC2)[C@H](O)[C@@H](O)[C@@H]1O; system = human, plasma; conditions = oral, 200 mg, 0 to 48 h pooled, [14C]-navoximod dosed; quantity = share of total radioactivity in plasma; result = 57.5%
